# Results of several laboratories.
# Parts stem from different laboratories: compare values within a part only.

# Series 1 — method: RNA Bind-n-Seq; molecule type: RNA; matrix: in vitro; tested at: 200 nM; notes: whole 134-nt RNA, ends assumed; together with: 150 mM KCl; baseline: input library; direction: higher = stronger binding
# Target: Ras GTPase-activating protein-binding protein 1, full length (G3BP1, Homo sapiens, UniProt Q13283)
# UniProt Q13283, sequence (whole entry, looked up): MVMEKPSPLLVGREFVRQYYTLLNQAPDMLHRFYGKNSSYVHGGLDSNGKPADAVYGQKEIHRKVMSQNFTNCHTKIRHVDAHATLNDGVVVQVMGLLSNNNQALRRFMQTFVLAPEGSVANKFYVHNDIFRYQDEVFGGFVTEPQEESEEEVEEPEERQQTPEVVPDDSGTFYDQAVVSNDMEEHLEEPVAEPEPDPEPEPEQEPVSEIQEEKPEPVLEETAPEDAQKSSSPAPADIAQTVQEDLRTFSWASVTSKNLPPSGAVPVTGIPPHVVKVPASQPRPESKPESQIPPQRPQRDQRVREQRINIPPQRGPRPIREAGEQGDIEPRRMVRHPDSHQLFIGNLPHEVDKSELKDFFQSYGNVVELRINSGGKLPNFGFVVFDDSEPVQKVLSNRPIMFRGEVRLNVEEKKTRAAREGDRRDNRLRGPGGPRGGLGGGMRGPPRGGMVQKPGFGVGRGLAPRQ
# Constant ends, left off below: GGGAGUUCUACAGUCCGACGAUC … UGGAAUUCUCGGGUGUCAAGG
Sequence,log2 enrichment
CACAGACAACACGCACCCACACAGACACAGAGGGAAGGGGUUGGGAUGGUGACAGGGUGCACAGCAGGGCGGGGUAGGACCCCAGCCCCU,1.37
GUCCUGUGCUACACAUCGUAUGUACCGAAUCGGGGAAAAAGGGGAGGGGAAAAAGGGGAAAGUAUUAUGUUACGCCGUUCGGAUCUGCAC,0.421
UGGCCCUGGUGGCAUGCUGGGAGGAAGAGGUGGCCUCAUGGAUCGUGGUGGUCCCGGUGGAAUGUUCAGAGGUGGCCGUGGUGGAGACAG,0.117
UCCUGUGCUACACAUCGUAUGUACCGAAUCAAAUUUUUUUAAAUUUUUAAACCCCCAAAAAAGUAUUAUGUUACGCCGUUCGGAUCUGCA,0.0795
UAACUUUAGAGGAGGAUCUGAUGGAUAUGGCAGUGGACGUGGAUUUGGGGAUGGCUAUAAUGGGUAUGCAGGAGGACCUGGAGGUGGCAA,0.18

# Series 2 — method: aptamer microarray, sandwich; molecule type: DNA with 2'F-ANA; matrix: in vitro; tested at: 200 nM; together with: Cy3 exosite-II aptamer, 400 nM; direction: higher = stronger binding
# Target: Prothrombin, mature alpha-thrombin (F2, Homo sapiens, UniProt P00734)
# Notes: whole 15-mer aptamer, many near background
Sequence,mean fluorescence intensity [a.u.]
GGTTGGTGTGGTTGG (2'F-ANA at 5 6 8 11 12 15),127
GGTTGGTGTGGTTGG (2'F-ANA at 2 5 7 8 9 14),60.3
GGTTGGTGTGGTTGG (2'F-ANA at 4 5 6 7 12 15),131
GGTTGGTGTGGTTGG (2'F-ANA at 2 5 6 7 8 9 10 15),55.4

# Series 3 — method: RNA Bind-n-Seq; molecule type: RNA; matrix: in vitro; tested at: 365 nM; baseline: no-protein control; direction: higher = stronger binding
# Target: RNA binding protein fox-1 homolog 2, RRM domain, GST-SBP tag (RBFOX2, Homo sapiens, UniProt O43251-10, residues 100-194)
# Notes: natural RNA segment, single round, ends assumed
Sequence,RBNS enrichment (R)
GGGAGUUCUACAGUCCGACGAUCAGUCAGAGGCACCAAGUCUAACUCUCAGCAUUUUUCCAAUAAAUGUUCUCCCUUGGCCCCUCUCCUGGCCACCACAAAGCUCCUUUUCUAAACUGUCCUGGGCAGAAGUCUGGAAUUCUCGGGUGCCAA,0.537
GGGAGUUCUACAGUCCGACGAUCUAGGAGUGGGCAGGGCCGAAUGGAUGGGAGCGGAAGAGAAUGUCUUAGGAACAAGGAGUUGACAAGAGACUCCCCAGAGAGUCCUUGCGUCCACAAGGCCUCCUGAUACCUGGAAUUCUCGGGUGCCAA,0.854
GGGAGUUCUACAGUCCGACGAUCGACGGGAGGUGGCUGCAGGAAGAGGAUGCCUCAGGGAUGCCGGACAUUUCCGUGUUCUAUUCCAGAGUGUUCUCUUCUCCCAGAGAACACUGGAACGUCCUCACAGGGAUUGGAAUUCUCGGGUGCCAA,0.55
GGGAGUUCUACAGUCCGACGAUCAGUGUGGUUACAGGCUGCAUUUCAGACAAUGACCAGGUUUACUUUUCAGAUCACAAAGCAAACAGUCACCAAGGAUCUGUCUUCCAACUCUUUUUUUUUUCUGCUGAAAUUGGAAUUCUCGGGUGCCAA,0.687

# Single results of other studies
Molecule,target,test,test system,conditions,scale,endpoint,result
"PhoQ, residues 284 288 289 292 302 303 SCCLKL","PhoP, residues 12 14 15 18 19 TPWLV (Escherichia coli, UniProt P23836)","Sort-seq, item: YFP reporter",E. coli,"PhoQ-PhoP variant library, together with: 10 µM Mg2+","baseline: high Mg2+ state, higher = stronger signaling",fold induction,6.65
